Published values gathered from unrelated publications.
Numbered parts are unrelated; each lists some results of a single study.

Sample 1 — method: RNA Bind-n-Seq; form: RNA; matrix: in vitro; concentration: 365 nM; relative to: no-protein control; direction: higher = stronger binding
Target: RNA binding protein fox-1 homolog 2, RRM domain, GST-SBP tag (RBFOX2, Homo sapiens, UniProt O43251-10, residues 100-194)
Setting: natural RNA segment, single round, ends assumed
Shared flanks, not repeated: GGGAGUUCUACAGUCCGACGAUC … UGGAAUUCUCGGGUGCCAA
Target sequence (chain): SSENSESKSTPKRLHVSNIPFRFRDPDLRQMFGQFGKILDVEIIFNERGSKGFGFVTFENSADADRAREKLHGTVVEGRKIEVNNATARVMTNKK
Sequence	RBNS enrichment (R)
CUUGUUUUUCUGAUGGCAAAUGGGAACUGUGACAAAGUGAAGUCCUUGUAAAGCGGUGAUACAACUUGUCAAAUAUUUAAUAAAGAAUUACGGAAGCUGGAACAUUUCCU	0.268
GGCCGGGCAAGCCAGAUUAGGCUUUGCUCCCAUACUCAGACAGUGCUGCAGAGCUGUGCCUCGCUGUGGAAAGCCCCAGCCCCACACAGAGAGCAAACAGUGAGAUAACA	0.24
CUUCUGUUCCAGGUGCUGUUCGAGCUGUUAGAACCCUUAGGCUUGACAGCUUUGUGAGUUAUUAUUGAAAAAUGAGGAUUCCAAGAGUCAGAGGAGUUUGAUAAUGUGCA	19.8
CAAUAUUUGAUUUUUUAAAAAUAUACACAUAGGUGCUGCAUUUAUAUCUGCUGGUUUAAAUUCUGUCAUAUUUCACUUCUAGCCUUUUAGUAUGGCAAAUCAUAUUUUAC	1.19
GCCUUAAACUGAAAAGUUAAAAAUUGAUGGAUUGUAGCAUUCCCAUAAUCUCCCCCUUCUUUUUUUUUCCUUUGGAAAUGUCCAAUAGUCUAUAUUCCUCUGUCCCGCCC	0.955
GUGUAUUAGCGGACGGCCCUCUGGCCACCUACCCGAGAGAUCGUAGGGUCACAUACAUCCAACUUCACCACUUGGCUGCUUGAGAUUGGUUCUGCUCUUUUCUUCAUUUC	0.308
UGCCCGGCCUGCCUUCUGGCCCCACGCCCACAGGCGUAGUCACAUCUUUGUACUGUACUCCCCUGUCUCACCUGGGGCAACCUCAGAGCCCCACUAAGCUGAAGGCCCCC	0.222
AGGAGCUGUGCUCCUCAGAGGGCAGAAUCUACAUUAAGUGCCGCCCAAAGGAGAGUGCGUUGUCAUAGAAACCACAUAAAACUAUCCUUCCAGAGGCUUCACCACCUUGC	0.296

Sample 2 — method: protein binding microarray; form: double-stranded DNA, one strand shown; matrix: in vitro; concentration: not given; relative to: not given; direction: higher = stronger binding
Target: Histone acetyltransferase KAT6A, winged helix 2, GST fusion (KAT6A, Homo sapiens, UniProt Q92794, residues 85-181)
Setting: 8-mer, flanks averaged, mean of 2 arrays, mostly near background
Residues (chain): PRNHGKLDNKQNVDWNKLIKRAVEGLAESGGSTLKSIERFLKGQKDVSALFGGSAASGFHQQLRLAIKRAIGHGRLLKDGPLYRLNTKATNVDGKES
Sequence	E-score
CGGCCACG	0.131
AGTAAGAG	0.0576
ACGATTCT	-0.0871
ATCCTCAA	-0.0301
AATAGTCC	-0.113
CTAGCTCA	-0.00012
CCCCTGCC	0.156
CCAAAGAG	0.0154
CTCTCCGC	0.283
TTATAAAA	0.142
CCTACCCA	-0.203
AGAATTCT	0.206
ACCCGACT	-0.0578
ACTAAACA	-0.111
AAGACCGT	-0.286
CCCAGAAG	0.0348
CCATTTTC	0.0399
AAATTATT	0.0666
GTTCAATA	-0.0705

Sample 3 — method: protein-binding microarray; form: double-stranded DNA, one strand shown; matrix: in vitro; concentration: not given; direction: higher = stronger binding
Target: Transcriptional repressor CTCF (CTCF, Homo sapiens, UniProt P49711, residues 1-727, full length assumed)
Setting: k-mer, scored over probes, only values ≥0.25
Construct (chain): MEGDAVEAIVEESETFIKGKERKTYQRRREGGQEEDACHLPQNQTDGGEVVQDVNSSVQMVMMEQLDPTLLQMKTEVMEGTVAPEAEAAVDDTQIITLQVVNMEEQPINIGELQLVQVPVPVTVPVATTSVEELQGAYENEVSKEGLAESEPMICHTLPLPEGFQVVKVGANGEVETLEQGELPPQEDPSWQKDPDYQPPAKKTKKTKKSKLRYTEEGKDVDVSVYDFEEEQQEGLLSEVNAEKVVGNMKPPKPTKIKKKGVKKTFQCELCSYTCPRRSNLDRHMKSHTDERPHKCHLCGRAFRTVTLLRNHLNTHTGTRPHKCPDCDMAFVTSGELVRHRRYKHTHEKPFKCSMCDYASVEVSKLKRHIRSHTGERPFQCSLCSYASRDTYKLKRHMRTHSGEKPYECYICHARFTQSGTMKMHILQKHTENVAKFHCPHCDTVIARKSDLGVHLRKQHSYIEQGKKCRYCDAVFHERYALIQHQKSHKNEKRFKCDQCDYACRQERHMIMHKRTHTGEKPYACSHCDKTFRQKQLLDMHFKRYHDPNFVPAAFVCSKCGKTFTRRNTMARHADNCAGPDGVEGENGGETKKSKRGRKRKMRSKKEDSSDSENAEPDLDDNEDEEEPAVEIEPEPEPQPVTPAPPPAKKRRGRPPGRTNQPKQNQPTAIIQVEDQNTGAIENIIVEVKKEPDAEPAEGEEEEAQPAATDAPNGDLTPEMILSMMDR
Sequence	E-score
ATATTTTA	0.321
CACAAATA	0.336
ATGTAAAA	0.293
AAATGAAA	0.262
CCTTTTCA	0.321
TTGCGCAA	0.314
AATTTTAA	0.283
GTCGCGCA	0.251
ATATTCGC	0.283
CATTATCA	0.277
TGCACTAA	0.284
TATCATAA	0.306
AAATTGCG	0.306
CTAATAAA	0.287
AAATCACC	0.262
ATAAGCAA	0.261
AATTTTAC	0.331
AATTCCCC	0.283
TTATTAAA	0.352
ATGATATA	0.255
AATTTCGC	0.275
ATGTTGCG	0.278
ATTATATC	0.295
ATGTGCAA	0.255
CAATTACA	0.255

Sample 4 — method: universal PBM; form: double-stranded DNA, one strand shown; matrix: in vitro; concentration: 600 nM; direction: higher = stronger binding
Target: Sal-like protein 4, full length isoform A (SALL4, Homo sapiens, UniProt Q9UJQ4, residues 1-1053)
Chain of UniProt Q9UJQ4 (whole entry, looked up): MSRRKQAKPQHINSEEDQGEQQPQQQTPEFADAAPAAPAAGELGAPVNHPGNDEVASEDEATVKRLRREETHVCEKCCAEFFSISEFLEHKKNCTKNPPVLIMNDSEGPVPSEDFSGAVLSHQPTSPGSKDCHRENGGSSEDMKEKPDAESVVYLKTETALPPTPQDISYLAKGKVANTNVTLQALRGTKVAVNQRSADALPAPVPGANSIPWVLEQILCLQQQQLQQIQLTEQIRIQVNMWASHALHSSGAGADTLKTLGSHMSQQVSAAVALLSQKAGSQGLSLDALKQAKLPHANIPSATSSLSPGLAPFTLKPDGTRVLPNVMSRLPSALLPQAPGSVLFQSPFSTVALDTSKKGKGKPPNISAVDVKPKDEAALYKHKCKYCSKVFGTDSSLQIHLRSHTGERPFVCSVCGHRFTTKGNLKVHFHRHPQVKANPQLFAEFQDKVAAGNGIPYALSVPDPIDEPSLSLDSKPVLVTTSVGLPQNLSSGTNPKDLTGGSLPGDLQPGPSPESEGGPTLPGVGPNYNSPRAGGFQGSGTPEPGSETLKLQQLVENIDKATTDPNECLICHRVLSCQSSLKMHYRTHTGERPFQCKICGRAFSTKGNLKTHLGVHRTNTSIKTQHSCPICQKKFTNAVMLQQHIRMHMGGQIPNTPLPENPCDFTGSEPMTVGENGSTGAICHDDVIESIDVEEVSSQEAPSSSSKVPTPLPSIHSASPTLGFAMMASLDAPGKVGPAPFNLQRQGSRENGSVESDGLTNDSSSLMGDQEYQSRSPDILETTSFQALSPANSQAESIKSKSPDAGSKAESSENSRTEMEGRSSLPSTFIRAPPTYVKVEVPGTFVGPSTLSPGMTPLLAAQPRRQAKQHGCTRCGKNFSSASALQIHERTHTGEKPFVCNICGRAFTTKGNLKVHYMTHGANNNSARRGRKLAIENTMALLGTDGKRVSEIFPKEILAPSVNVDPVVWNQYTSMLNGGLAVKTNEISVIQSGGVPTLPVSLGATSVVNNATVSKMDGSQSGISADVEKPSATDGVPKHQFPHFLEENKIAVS
Setting: 8-mer, flanks averaged, mean of replicates
Sequence	E-score
ACATGTCC	-0.0474
GCGCATCC	-0.254
CGCGCGAA	-0.251
GAGGGCAA	-0.0709
CTGGCTCA	-0.133
TAGAACGA	0.126
ACAGGATC	-0.159
AAAGTGGT	0.0179
CGCCCTGC	-0.318
ACGGCGCT	-0.359
ACGCGTCT	-0.163
ATACGCTA	0.0926
GGTGATGA	0.0387
CGTGAAGC	-0.247
CTAACCTA	0.0624
AACCTATC	-0.00211
GTGTCTCA	-0.0195

Excerpt of the above (sample 2):
Sequence	E-score
ACCCGACT	-0.0578
AAGACCGT	-0.286
CTCTCCGC	0.283
CCCCTGCC	0.156
CCAAAGAG	0.0154
ATCCTCAA	-0.0301
AGAATTCT	0.206
AGTAAGAG	0.0576
AAATTATT	0.0666
